Published values of several laboratories.
Each line is one published result; not all experiments were run side by side. Numbers after ± are the reported error. In brackets after ≈: the same amount, converted by molar mass.
Chain of UniProt P13945 (whole entry, looked up): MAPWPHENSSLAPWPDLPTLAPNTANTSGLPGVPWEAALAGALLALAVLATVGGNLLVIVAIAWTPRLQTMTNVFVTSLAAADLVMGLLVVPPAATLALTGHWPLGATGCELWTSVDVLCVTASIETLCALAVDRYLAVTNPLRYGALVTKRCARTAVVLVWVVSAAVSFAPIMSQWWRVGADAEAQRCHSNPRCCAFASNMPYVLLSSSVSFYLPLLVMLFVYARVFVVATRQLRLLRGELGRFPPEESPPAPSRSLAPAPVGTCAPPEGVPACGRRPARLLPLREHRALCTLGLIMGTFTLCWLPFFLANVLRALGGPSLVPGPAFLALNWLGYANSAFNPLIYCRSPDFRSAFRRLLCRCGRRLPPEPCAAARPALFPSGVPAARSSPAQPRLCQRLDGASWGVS
Chain of UniProt P49721 (whole entry, looked up): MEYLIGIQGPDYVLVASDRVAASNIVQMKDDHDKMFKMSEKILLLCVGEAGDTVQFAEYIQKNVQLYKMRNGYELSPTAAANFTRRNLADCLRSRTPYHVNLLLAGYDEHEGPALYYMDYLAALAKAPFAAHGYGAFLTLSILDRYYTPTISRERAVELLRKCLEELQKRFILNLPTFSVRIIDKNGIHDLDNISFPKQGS

COc1cc(Nc2ncc(F)c(Nc3ccc4c(n3)NC(=O)C(C)(C)O4)n2)cc(OC)c1OC  IC50 (Beta-3 adrenergic receptor (ADRB3, Homo sapiens, UniProt P13945)): > 10 µM
O=C(c1ccc(Cl)cc1)N1CCN2C(=O)N(OC(=O)N3CCOc4ccccc43)C(=O)C2C1 (stereo not drawn)  median protein ratio (Proteasome Macropain subunit (Homo sapiens, UniProt P49721); MS-based ABPP; SW-620 conditioned medium; 10 µM; baseline: compound over DMSO, lower = more inhibition): 1.09
CC[C@H](C)[C@@H]1NC(=O)[C@@H]2CCCN2C(=O)[C@H](CC(C)C)NC(=O)[C@H](CC(C)C)NC(=O)CNC(=O)[C@@H](NC(=O)[C@@H](NC(=O)[C@H](CC(=O)O)NC(=O)CNC(=O)[C@@H](NC(=O)[C@H](C)NC(=O)CNC(=O)[C@H](CCCCN)NC(=O)[C@H](CC(C)C)NC(=O)[C@H](CC(C)C)NC(=O)[C@H](CCCCN)NC(=O)CNC(=O)[C@@H](NC(=O)[C@@H](N)CC(C)C)C(C)C)C(C)C)C(C)C)CSSC[C@@H](C(=O)O)NC1=O  log2 fold change (RNA-seq, refers to: Rnase6; mouse, traumatic brain injury model, frontal cortex and hippocampus; dose not given; baseline: TBI alone): -2.51
Clc1nc[n]([Au][PH](c2ccccc2)(c2ccccc2)c2ccccc2)c1Cl  IC50 (NCI-H661 parental; cell viability, MTT; 48 h): 1.1 µM
CO[C@@H]1[C@@H](OC(N)=O)[C@@H](O)[C@H](Oc2ccc3c(O)c(NC(=O)c4ccc(O)c(CC=C(C)C)c4)c(=O)oc3c2C)OC1(C)C  IC50 (DLD-1 BRCA2 knockout; colony survival): 50 to 100 µM
COc1c(C)c2c(c(O)c1C/C=C(\C)CCC(=O)O)C(=O)OC2  IC50 (kidney cancer cell lines; cell proliferation; average over lines): 0.851 µM
O=C1C=CC(=O)c2c(O)cccc21  IC50 (HFF-1; cytotoxicity, MTT; 48 h): 3.8 µM
CC[C@H](C)[C@H](NC(=O)CN)C(=O)NCC(=O)N[C@@H](C)C(=O)N[C@H](C(=O)N[C@@H](CC(C)C)C(=O)N[C@@H](CCCCN)C(=O)N[C@H](C(=O)N[C@@H](CC(C)C)C(=O)N[C@H](C(=O)N[C@H](C(=O)NCC(=O)N[C@@H](CC(C)C)C(=O)N1CCC[C@H]1C(=O)N[C@@H](C)C(=O)N[C@@H](CC(C)C)C(=O)N[C@H](C(=O)N[C@@H](CO)C(=O)N[C@@H](Cc1c[nH]c2ccccc12)C(=O)N[C@H](C(=O)N[C@@H](CCCCN)C(=O)N[C@@H](CCCNC(=N)N)C(=O)N[C@@H](CCCCN)C(=O)N[C@@H](CCCNC(=N)N)C(=O)N[C@@H](CCC(N)=O)C(=O)N[C@@H](CCC(N)=O)C(N)=O)[C@@H](C)CC)[C@@H](C)CC)[C@@H](C)O)[C@@H](C)O)C(C)C)C(C)C  IC50 (human red blood cells; haemolysis; pH 7.4, 37 °C; baseline: Triton X-100): 13.1 µM
C=C1CC[C@@H]2[C@](C)(CCC[C@]2(C)C(=O)O)[C@H]1CC/C(C)=C/CO  IC50 (neuroblastoma M2, MYCN overexpressing; cell viability, SRB; added: doxycycline): 2.82 µg/mL
COc1cc2c(Oc3ccc4[nH]c(C)cc4c3F)ccnc2cc1OCC1(N)CC1  grade 1 or 2 bone pain (paediatric recurrent refractory sarcoma; 8 mg): 25%
CO[C@H]1C[C@H](O[C@H]2[C@H](C)O[C@@H](O[C@@H]3/C(C)=C/C[C@@H]4C[C@@H](C[C@]5(C=C[C@H](C)[C@@H](C6CCCCC6)O5)O4)OC(=O)[C@@H]4C=C(C)[C@@H](O)[C@H]5OC/C(=C\C=C\[C@@H]3C)[C@]54O)C[C@@H]2OC)O[C@@H](C)[C@@H]1O  IC50 (CAR-luc cells): 12.5 ± 0.34 µM
CC[C@H](C)[C@H](NC(=O)[C@H](C)NC(=O)[C@H](CCCCN)NC(=O)[C@H](CC(C)C)NC(=O)[C@H](C)NC(=O)[C@@H](NC(=O)[C@H](Cc1c[nH]cn1)NC(=O)[C@H](CC(C)C)NC(=O)[C@@H](NC(=O)[C@@H](NC(=O)[C@H](CCCCN)NC(=O)[C@H](C)NC(=O)[C@H](C)NC(=O)[C@H](CO)NC(=O)[C@H](CCCCN)NC(=O)[C@H](Cc1ccccc1)NC(=O)[C@@H](NC(=O)[C@H](CCCCN)NC(=O)[C@H](CC(C)C)NC(=O)[C@H](Cc1ccccc1)NC(=O)[C@H](CO)NC(=O)[C@H](CCCCN)NC(=O)[C@H](Cc1c[nH]c2ccccc12)NC(=O)[C@H](CCCCN)NC(C)=O)[C@@H](C)O)[C@@H](C)O)C(C)C)[C@@H](C)O)C(=O)N[C@@H](CO)C(=O)N[C@@H](CO)C(N)=O  MBC50 (Staphylococcus aureus; ATCC 29213): 8 µg/mL (≈ 2.73 µM)
CO/N=C1\C[C@]2(C[C@@H]3C[C@@H](C/C=C(\C)C[C@@H](C)/C=C/C=C4\CO[C@@H]5[C@H](O)C(C)=C[C@@H](C(=O)O3)[C@]45O)O2)O[C@H](/C(C)=C/C(C)C)[C@H]1C  IC50 (CAR-luc cells): 22.3 ± 2.05 µM
O=c1ccn([C@@H]2O[C@H](CO)[C@@H](O)[C@H]2O)c(=S)[nH]1  IC50 (HepG2; cell growth; 120 h): > 50 µM
CN1CCN(S(=O)(=O)c2cc([N+](=O)[O-])ccc2N(CCOS(C)(=O)=O)CCOS(C)(=O)=O)CC1  IC50 (sample BA T-ALL PDX cells; cell viability; ex vivo; 48 h, added: AKR1C3 inhibitor 1 µM, 1 h pretreatment): 13 µM
